Published values of several laboratories.
Compare with care: the assays were run in different laboratories. “And” joins repeats or separate records; there may be more than shown.
RAF1: RAF proto-oncogene serine/threonine-protein kinase (RAF1, Homo sapiens, UniProt P04049)
RAF1 Y340D/Y341D: RAF proto-oncogene serine/threonine-protein kinase (RAF1, Homo sapiens, UniProt P04049, Y340D/Y341D)

O=C=[N][Ru-4]123([n]4c5ccc(O)cc5c5c6c(c7cc(F)c[n+]1c7c54)C(=O)NC6=O)[S+]1CC[S+]2CC[S+]3CC1 (centres unmarked)
remaining activity (RAF1; enzyme activity; 100 nM, human enzyme, together with: 10 µM ATP; baseline: untreated): 111%

CCN1CCN(Cc2ccc(NC(=O)c3ccc(C)c(NC(=O)c4cncc(-c5cccs5)c4)c3)cc2C(F)(F)F)CC1
remaining binding (RAF1; binding, competition with immobilised ligand; 1 µM): 28%

CS(=O)(=O)Nc1cccc(-c2csc3cnc(Nc4ccc(N5CCN(CCCCCOc6cccc7c6C(=O)N(C6CCC(=O)NC6=O)C7=O)CC5)cc4)nc23)c1 (centres unmarked)
inhibition (RAF1; probe labelling, inhibitor, KiNativ chemoproteomics; MOLT-4; 1 µM): -1.72%

CNC(=O)C[C@H](Cc1ccc(C#N)cc1)NC(=O)c1cc(-c2ccc(CN[C@H](C)c3ccc(C)cc3)o2)ccc1Cl
activity vs control (RAF1; enzyme activity, inhibitor; 1 µM): 106%

Cc1cccc(O[C@H]2CCC[C@@H](C(C)CNCc3ccncc3)C2)c1 (relative stereo)
inhibition (RAF1; enzyme activity, inhibitor; 1 µM): -6%

CCN1CCN(Cc2ccc(C(=O)Nc3ccc(C)c(NCc4cnc5[nH]ccc5c4OC)c3)cc2C(F)(F)F)CC1
remaining binding (RAF1; binding, competition with immobilised ligand; 1 µM): 25%

C=CC(=O)N1CCCC(n2c(=O)c3ncccc3n(Cc3ccc(Oc4ccccc4)cc3)c2=O)C1 (centres unmarked)
remaining binding (RAF1; cell-free assay, competition with immobilised ligand; 1 µM): 100%

CN1CCN(Cc2ccc(NC(=O)c3cccc(C#Cc4cnc(N)c5ncccc45)c3)cc2C(F)(F)F)CC1
remaining binding (RAF1; cell-free assay, competition with immobilised ligand; 50 nM): 18%

C=C1CCCCCCCCCC(CO)C1=O (centres unmarked)
remaining binding (RAF1; cell-free assay, competition with immobilised ligand; 10 µM): 97%

CC(=O)N1c2ccc(-c3ccc(CNC(=O)c4cn5cc(-c6cnc(N)nc6)nc(N6CCOCC6)c5n4)cc3)cc2CC[C@@H]1C
remaining binding (RAF1; KINOMEscan; 10 µM): 90%

COCC12C(=O)NC3C4(C(OC)CC1O)C1CC5(O)C(OC)C(O)C(OC(C)=O)(C1C5OC(=O)c1ccccc1)C3(O)C(OC)C24 (centres unmarked)
remaining activity (RAF1 Y340D/Y341D; kinase activity, inhibitor, ProQinase kinase profiling; 25 µM; baseline: control): 106% and 105%

C[C@H]1CN(C(=O)c2cn(-c3ccnc(N)n3)c3cc(C#CC4(O)CCCCC4)ccc23)CCN1
inhibition (RAF1 Y340D/Y341D; enzyme activity, inhibitor, FRET; 1 µM): -2%

NC(=O)[C@@H](O)C[C@H]1CCc2sc3ncnc(O[C@H]4CC[C@H](N5CCOCC5)CC4)c3c21
inhibition (RAF1; enzyme activity, inhibitor; 10 µM): 1%

COc1ccc(NC(=O)Nc2ccc3c(c2)C(=O)N(C(C)CO)CC(C)C(CN(C)Cc2ccc4c(c2)OCO4)O3)cc1 (centres unmarked)
remaining binding (RAF1; binding, competition with immobilised ligand; 10 µM): 100%

C=CC(=O)Nc1cccc(-c2cnc3[nH]cc(C(=O)NC(C)(C)C)c3n2)c1
inhibition (RAF1; enzyme activity, inhibitor; 0.1 µM): -1%

CC(C)=CC1OC(C)(C)C2C=C3C(=O)C(Cl)=CC(O)C3C3C(O)C4OC4C(=O)C132 (centres unmarked)
remaining binding (RAF1; cell-free assay, competition with immobilised ligand; 10 µM): 85%

C=CC(=O)N1CCc2ccc(-n3c(=O)ccc4cnc5ccc(-c6cnn(C)c6)cc5c43)cc21
remaining binding (RAF1; KINOMEscan; 1 µM; baseline: DMSO control): 89%

COc1cc(Nc2nccc(-c3cnn4nc(OC)ccc34)n2)cc(C(F)(F)F)c1
remaining binding (RAF1; binding, competition with immobilised ligand; 1 µM): 84%

COc1c(Cl)cccc1Nc1c(-c2ccncc2C#C[C@@]2(C)CCCN2C(=O)/C=C/CN(C)C)[nH]c2c1C(=O)NCC2
remaining binding (RAF1; binding, competition with immobilised ligand; 3 µM): 56%

Cc1cnc2nc1Nc1cccc(c1)COC/C=C/COCc1cc(ccc1OCCN1CCOCC1)N2
remaining binding (RAF1; binding, competition with immobilised ligand; 0.1 µM): 94%

A few entries again:
COc1c(Cl)cccc1Nc1c(-c2ccncc2C#C[C@@]2(C)CCCN2C(=O)/C=C/CN(C)C)[nH]c2c1C(=O)NCC2
remaining binding (RAF1; binding, competition with immobilised ligand; 3 µM): 56%
